Assay results gathered from unrelated publications.
Every numbered part comes from another study and shows a few of its results, in no order. Positions count from the first letter of the parent shown.

Set 1
Target: CCNA1, cyclin fold, Cln2 fusion (human)
Technique: yeast growth competition, sequencing
Sample: yeast
Notes: strong parent motif
Relative to: not given
Direction: higher = stronger binding
Starting sequence: E2F1 docking peptide (human); PPVKRRLDFETDH; partner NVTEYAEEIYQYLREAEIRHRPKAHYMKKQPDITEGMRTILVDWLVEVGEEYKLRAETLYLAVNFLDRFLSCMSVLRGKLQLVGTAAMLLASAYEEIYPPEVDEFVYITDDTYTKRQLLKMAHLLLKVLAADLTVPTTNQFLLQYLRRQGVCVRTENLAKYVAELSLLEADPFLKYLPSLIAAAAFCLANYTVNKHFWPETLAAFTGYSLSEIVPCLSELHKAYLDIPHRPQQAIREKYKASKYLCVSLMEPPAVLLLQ
| Substitution | normalised enrichment score |
| --- | --- |
| PPVKRLLDFETDH [R6L] | 0.481 |
| PPVKRRLDFETAH [D12A] | 1.97 |
| PPVKRFLDFETDH [R6F] | 0.996 |
| PPVKYRLDFETDH [R5Y] | 0.257 |
| PPVKRRLDFVTDH [E10V] | 1.51 |
| PPVKRPLDFETDH [R6P] | 0.444 |
| PPVWRRLDFETDH [K4W] | 0.82 |
| PPVKRRLDFETRH [D12R] | 1.78 |
| PPVKRRLDFCTDH [E10C] | 1.85 |
| PPVKRRIDFETDH [L7I] | 0.938 |
| PPVKRRLDFGTDH [E10G] | 1.96 |
| PSVKRRLDFETDH [P2S] | 1.82 |
| PPFKRRLDFETDH [V3F] | 0.391 |
| PPVKRRLWFETDH [D8W] | 1.24 |
| PPVKRRLSFETDH [D8S] | 1.4 |
| PPVKRYLDFETDH [R6Y] | 0.693 |
| PPVKRRLDFETKH [D12K] | 1.54 |
| PPVKRRLDFQTDH [E10Q] | 1.99 |
| PDVKRRLDFETDH [P2D] | 1.42 |

Set 2
Target: CEP164, C-terminal peptide (human)
Technique: DHFR complementation, deep sequencing
Sample: yeast
Notes: single substitutions, model-inferred values
Relative to: wild type
Direction: higher = weaker binding
Starting sequence: PDZK1, PDZ domain 2 (human); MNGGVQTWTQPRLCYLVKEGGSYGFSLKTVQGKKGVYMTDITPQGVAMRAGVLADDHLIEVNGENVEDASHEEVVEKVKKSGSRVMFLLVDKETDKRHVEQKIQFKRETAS; partner HNRVKVYRF
| Substitution | binding free energy change |
| --- | --- |
| E76A | 0.0246 kcal/mol |
| F87C | 1.04 kcal/mol |
| V46L | 0.71 kcal/mol |
| S111P | -0.121 kcal/mol |
| M48D | -0.24 kcal/mol |
| G63S | 0.215 kcal/mol |
| G51C | 0.19 kcal/mol |
| G63H | 0.038 kcal/mol |
| D91A | -0.129 kcal/mol |
| Y37P | 1.36 kcal/mol |
| S81F | 0.761 kcal/mol |
| G45I | 1.39 kcal/mol |
| E76M | 0.0939 kcal/mol |
| T109R | -0.323 kcal/mol |
| V5G | -0.0909 kcal/mol |

Set 3
Target: ABI1, truncated, D143A, DHFR fusion (Arabidopsis thaliana)
Technique: DHFR PCA, deep sequencing
Sample: yeast
Notes: methotrexate growth selection, single substitutions
Together with: (+)-ABA 0 µM
Relative to: wild-type fitted maximum
Direction: higher = stronger binding
Starting sequence: PYL1, truncated, DHFR fusion (Arabidopsis thaliana); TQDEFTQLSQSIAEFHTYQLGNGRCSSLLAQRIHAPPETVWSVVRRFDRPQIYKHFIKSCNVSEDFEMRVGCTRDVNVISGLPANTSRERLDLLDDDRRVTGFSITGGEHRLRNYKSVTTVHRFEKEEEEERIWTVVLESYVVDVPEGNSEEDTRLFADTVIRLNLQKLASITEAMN
| Substitution | relative binding score [%] |
| --- | --- |
| M68L | 57.1 |
| N61C | 29 |
| R111E | 3.12 |
| V161N | 22.8 |
| S59Y | 4.25 |
| I12R | 0.649 |
| W41D | 1.49 |
| H122E | 0.802 |
| S59P | 0.307 |
| H122N | 3.87 |

Set 4
Substance: PhoQ, residues 284 288 289 292 302 303 TVTVVA
Technique: Sort-seq
Refers to: YFP reporter
Sample: E. coli
Notes: PhoQ-PhoP variant library
Together with: 10 µM Mg2+
Relative to: high Mg2+ state
Direction: higher = stronger signaling
| target | fold induction |
| --- | --- |
| PhoP, residues 12 14 15 18 19 LHHYF (Escherichia coli, UniProt P23836) | 7.33 |
| PhoP, residues 12 14 15 18 19 VGHWL (Escherichia coli, UniProt P23836) | 6.03 |
| PhoP, residues 12 14 15 18 19 TPWTL (Escherichia coli, UniProt P23836) | 3.8 |
| PhoP, residues 12 14 15 18 19 NFFVT (Escherichia coli, UniProt P23836) | 9.68 |

Excerpt of the above (set 2):
| Substitution | binding free energy change |
| --- | --- |
| F87C | 1.04 kcal/mol |
| V46L | 0.71 kcal/mol |
| S81F | 0.761 kcal/mol |
| M48D | -0.24 kcal/mol |
| V5G | -0.0909 kcal/mol |
| E76M | 0.0939 kcal/mol |
| S111P | -0.121 kcal/mol |
